Measured values pooled from the literature.
Protocols differ between the studies behind these lines. Converted amounts (≈) assume the structure as drawn.

O=C1/C(=N\NC(=S)NN=Cc2cccs2)c2ccccc2N1Cc1ccccc1  EC50 (vesicular stomatitis virus; viral replication; HEL): > 20 µM
CC[C@H](C)[C@H](NC(=O)[C@H](CCCNC(=N)N)NC(=O)[C@H](CCCCN)NC(=O)[C@H](CC(C)C)NC(=O)[C@H](CC(C)C)NC(=O)CN)C(=O)N[C@@H](CCCCN)C(=O)N[C@H](C(=O)N[C@@H](CC(C)C)C(=O)N[C@@H](CC(C)C)C(=O)NCCCC[C@H](NC(=O)[C@H](CC(C)C)NC(=O)[C@H](CC(C)C)NC(=O)[C@@H](NC(=O)[C@H](CCCCN)NC(=O)[C@@H](NC(=O)[C@H](CCCNC(=N)N)NC(=O)[C@H](CCCCN)NC(=O)[C@H](CC(C)C)NC(=O)[C@H](CC(C)C)NC(=O)CN)[C@@H](C)CC)[C@@H](C)O)C(N)=O)[C@@H](C)O  geometric mean MIC (five bacterial species; bacterial growth): 8 µM
COc1ccc(CCNc2cc(-c3ccccc3)nc3ncnn23)cc1  MIC (Moraxella catarrhalis; microbial growth, broth dilution; 1502): 32 µM (≈ 11.1 µg/mL)
O=C(CNc1cccc(F)c1)N1CCCC2=CC3CC(CN4CCCCC34)C21 (centres unmarked)  EC50 (vesicular stomatitis virus; pseudovirus entry; VSV G pseudovirus): > 267 µM
CC(=C(c1ccc(Cl)cc1)c1ccc(OCCN2CCCC2)cc1)c1ccc(Cl)cc1  EC50 (influenza A virus H1N1; cytopathic effect, visual CPE; MDCK): 3.2 µg/mL
Fc1ccc(-c2ccc(/C=C/Cn3ccnc3)cc2)cc1  MIC50 (Mycobacterium tuberculosis variant bovis BCG; microbial growth; BCG): 0.5 µg/mL (≈ 1.8 µM)
Cc1ccc2nc(C)c(C(=O)NCc3cccs3)n2c1  MIC (Mycobacterium tuberculosis variant bovis BCG; microbial growth; BCG): 0.5 µM (≈ 0.143 µg/mL)
CCC(=C(c1ccc(Cl)cc1)c1ccc(OCCN(CC)CC)cc1)c1ccc(OC)cc1  EC50 (influenza A virus H1N1; cytopathic effect, visual CPE; MDCK): > 3.2 µg/mL

A few entries again:
CC(=C(c1ccc(Cl)cc1)c1ccc(OCCN2CCCC2)cc1)c1ccc(Cl)cc1  EC50 (influenza A virus H1N1; cytopathic effect, visual CPE; MDCK): 3.2 µg/mL
